# Measurements gathered from unrelated publications.
# Protocols differ between the studies behind these lines. ± marks the error that the study gave.
# PTPN1: Tyrosine-protein phosphatase non-receptor type 1 (PTPN1, Homo sapiens, UniProt P18031)
# UniProt P18031, sequence (whole entry, looked up): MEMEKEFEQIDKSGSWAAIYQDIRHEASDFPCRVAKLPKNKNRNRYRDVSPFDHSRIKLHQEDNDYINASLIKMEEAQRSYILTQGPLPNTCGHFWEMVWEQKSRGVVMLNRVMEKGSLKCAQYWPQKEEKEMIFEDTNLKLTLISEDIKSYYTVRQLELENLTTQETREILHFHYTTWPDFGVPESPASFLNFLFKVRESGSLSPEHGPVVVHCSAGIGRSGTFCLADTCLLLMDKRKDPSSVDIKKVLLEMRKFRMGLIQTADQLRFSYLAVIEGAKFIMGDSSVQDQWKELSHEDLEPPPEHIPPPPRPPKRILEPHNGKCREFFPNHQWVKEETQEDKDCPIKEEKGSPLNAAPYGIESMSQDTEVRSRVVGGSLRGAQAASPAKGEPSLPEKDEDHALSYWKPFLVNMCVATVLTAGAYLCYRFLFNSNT
# CASP3: Caspase-3 (CASP3, Homo sapiens, UniProt P42574)
# UniProt P42574, sequence (whole entry, looked up): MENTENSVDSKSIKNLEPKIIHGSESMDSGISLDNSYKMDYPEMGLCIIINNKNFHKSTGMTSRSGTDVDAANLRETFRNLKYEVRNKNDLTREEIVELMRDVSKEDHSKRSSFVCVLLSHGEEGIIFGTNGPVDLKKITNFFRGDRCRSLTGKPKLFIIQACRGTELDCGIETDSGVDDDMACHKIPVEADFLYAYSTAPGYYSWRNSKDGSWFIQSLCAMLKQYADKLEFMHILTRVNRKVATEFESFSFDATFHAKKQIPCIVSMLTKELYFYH
# GBA3: Cytosolic beta-glucosidase (GBA3, Homo sapiens, UniProt Q9H227)
# UniProt Q9H227, sequence (whole entry, looked up): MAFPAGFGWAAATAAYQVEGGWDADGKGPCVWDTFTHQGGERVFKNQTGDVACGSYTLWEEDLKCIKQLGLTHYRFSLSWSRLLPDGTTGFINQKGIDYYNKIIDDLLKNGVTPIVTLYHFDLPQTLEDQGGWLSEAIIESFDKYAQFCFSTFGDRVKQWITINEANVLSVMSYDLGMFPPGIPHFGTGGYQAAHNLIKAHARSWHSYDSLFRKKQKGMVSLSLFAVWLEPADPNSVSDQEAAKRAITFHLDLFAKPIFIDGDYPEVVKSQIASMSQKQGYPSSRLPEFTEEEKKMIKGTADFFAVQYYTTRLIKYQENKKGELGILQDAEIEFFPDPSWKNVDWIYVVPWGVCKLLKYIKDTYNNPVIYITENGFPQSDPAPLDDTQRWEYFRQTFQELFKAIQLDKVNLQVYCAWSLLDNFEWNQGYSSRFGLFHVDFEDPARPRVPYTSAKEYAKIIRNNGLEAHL
# CHRM3: Muscarinic acetylcholine receptor M3 (CHRM3, Homo sapiens, UniProt P20309)
# UniProt P20309, sequence (whole entry, looked up): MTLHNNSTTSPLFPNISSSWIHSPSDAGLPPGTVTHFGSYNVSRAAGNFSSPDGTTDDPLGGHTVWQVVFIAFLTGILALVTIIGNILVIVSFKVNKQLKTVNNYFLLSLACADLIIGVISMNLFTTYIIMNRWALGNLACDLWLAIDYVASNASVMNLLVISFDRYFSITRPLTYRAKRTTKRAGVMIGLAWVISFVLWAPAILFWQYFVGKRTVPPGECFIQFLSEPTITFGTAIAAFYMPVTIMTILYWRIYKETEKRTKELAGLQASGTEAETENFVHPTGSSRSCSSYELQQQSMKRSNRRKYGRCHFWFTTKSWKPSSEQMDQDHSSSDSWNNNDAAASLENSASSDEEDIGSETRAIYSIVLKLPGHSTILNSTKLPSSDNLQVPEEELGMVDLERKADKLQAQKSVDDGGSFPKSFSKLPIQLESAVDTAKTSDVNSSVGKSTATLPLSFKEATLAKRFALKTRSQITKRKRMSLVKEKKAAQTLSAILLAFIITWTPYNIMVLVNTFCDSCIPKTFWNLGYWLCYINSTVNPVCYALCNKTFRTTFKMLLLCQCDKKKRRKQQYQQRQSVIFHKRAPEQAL
# SLC10A2: Ileal sodium/bile acid cotransporter (SLC10A2, Homo sapiens, UniProt Q12908)
# UniProt Q12908, sequence (whole entry, looked up): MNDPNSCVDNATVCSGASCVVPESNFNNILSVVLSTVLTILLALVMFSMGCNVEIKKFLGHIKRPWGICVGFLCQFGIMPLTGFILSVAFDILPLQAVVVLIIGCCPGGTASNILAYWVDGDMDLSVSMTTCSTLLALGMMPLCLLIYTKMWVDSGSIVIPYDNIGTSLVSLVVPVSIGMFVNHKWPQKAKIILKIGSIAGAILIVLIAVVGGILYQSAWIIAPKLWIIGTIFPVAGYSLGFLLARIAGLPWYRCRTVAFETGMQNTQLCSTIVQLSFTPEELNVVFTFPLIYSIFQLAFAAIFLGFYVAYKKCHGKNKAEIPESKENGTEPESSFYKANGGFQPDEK
# ADORA3: Adenosine receptor A3 (ADORA3, Homo sapiens, UniProt P0DMS8)
# UniProt P0DMS8, sequence (whole entry, looked up): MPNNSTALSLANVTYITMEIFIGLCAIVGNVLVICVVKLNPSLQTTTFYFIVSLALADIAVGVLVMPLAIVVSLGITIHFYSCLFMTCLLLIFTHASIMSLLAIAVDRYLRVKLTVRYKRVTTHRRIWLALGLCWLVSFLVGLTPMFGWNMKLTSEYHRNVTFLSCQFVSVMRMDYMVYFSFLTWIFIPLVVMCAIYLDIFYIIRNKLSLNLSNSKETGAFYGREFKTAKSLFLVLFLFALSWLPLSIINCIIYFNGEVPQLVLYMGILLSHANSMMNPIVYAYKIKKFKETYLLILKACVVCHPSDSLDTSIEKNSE
# Hypoxanthine-guanine phosphoribosyltransferase: Hypoxanthine-guanine phosphoribosyltransferase (Trypanosoma cruzi, UniProt Q4DGA3)
# UniProt P27338, sequence (whole entry, looked up): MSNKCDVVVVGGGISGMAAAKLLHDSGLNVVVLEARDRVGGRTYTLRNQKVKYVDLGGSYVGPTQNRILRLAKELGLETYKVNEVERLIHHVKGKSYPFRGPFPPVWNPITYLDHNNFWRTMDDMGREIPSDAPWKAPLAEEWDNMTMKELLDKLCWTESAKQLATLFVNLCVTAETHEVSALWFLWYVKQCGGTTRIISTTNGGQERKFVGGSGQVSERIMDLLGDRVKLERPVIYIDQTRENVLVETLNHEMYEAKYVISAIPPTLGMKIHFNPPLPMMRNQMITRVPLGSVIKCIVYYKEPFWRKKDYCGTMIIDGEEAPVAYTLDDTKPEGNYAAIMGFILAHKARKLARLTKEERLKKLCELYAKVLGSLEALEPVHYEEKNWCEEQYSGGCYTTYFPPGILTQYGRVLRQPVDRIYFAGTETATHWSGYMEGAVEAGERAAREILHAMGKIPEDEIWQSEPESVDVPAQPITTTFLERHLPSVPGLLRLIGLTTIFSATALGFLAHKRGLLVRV
# UniProt Q16720, sequence (whole entry, looked up): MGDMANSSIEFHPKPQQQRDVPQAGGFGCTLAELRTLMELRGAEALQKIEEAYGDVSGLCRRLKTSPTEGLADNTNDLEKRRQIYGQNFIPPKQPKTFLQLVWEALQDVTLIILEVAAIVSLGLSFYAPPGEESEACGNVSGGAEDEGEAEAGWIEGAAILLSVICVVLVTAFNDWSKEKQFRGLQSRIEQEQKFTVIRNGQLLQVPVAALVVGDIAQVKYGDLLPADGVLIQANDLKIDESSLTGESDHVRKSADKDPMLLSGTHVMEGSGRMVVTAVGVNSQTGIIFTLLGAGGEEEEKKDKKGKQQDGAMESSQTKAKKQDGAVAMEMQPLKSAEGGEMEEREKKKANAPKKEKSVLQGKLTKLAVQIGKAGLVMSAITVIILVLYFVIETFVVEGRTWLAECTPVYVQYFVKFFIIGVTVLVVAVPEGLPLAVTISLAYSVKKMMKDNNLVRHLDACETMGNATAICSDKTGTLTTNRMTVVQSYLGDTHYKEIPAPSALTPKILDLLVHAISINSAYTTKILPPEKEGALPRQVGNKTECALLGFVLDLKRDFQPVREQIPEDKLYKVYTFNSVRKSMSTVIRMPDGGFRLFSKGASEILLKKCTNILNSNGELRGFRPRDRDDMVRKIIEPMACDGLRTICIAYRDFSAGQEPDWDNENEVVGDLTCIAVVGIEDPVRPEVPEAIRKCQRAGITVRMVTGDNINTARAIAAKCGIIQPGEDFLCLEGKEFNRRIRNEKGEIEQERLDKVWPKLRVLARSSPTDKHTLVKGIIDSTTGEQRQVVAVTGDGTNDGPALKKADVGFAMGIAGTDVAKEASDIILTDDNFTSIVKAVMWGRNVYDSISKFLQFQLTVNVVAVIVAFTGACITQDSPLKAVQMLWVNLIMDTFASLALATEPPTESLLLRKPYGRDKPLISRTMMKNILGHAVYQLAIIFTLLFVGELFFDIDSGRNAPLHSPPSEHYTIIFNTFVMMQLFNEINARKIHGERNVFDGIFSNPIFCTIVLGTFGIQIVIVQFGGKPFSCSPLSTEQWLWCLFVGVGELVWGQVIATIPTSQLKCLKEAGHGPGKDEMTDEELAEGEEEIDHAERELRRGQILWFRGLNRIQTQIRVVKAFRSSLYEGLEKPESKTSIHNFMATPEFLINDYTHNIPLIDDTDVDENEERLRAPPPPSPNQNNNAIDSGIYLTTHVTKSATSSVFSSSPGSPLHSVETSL
# UniProt P61169, sequence (whole entry, looked up): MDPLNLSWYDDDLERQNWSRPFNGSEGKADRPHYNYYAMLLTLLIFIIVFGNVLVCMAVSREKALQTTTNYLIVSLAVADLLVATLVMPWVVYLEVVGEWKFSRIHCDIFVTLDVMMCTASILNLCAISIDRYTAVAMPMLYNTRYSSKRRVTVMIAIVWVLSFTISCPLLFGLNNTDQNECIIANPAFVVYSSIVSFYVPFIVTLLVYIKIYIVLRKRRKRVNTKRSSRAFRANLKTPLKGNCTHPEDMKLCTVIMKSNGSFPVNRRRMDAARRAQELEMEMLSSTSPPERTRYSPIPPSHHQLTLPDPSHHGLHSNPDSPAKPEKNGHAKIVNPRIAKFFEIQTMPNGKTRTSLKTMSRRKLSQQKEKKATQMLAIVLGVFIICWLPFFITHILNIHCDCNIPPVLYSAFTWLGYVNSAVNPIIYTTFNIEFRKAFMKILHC
# UniProt Q01726, sequence (whole entry, looked up): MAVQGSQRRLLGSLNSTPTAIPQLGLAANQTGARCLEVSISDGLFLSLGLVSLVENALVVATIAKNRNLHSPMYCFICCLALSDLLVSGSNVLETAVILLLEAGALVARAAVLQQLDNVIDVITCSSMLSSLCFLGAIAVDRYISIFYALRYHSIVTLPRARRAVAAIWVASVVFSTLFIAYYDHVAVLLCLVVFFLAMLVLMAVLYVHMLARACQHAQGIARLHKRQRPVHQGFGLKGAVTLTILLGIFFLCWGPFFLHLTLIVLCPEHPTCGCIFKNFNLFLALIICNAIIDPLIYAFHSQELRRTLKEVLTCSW
SMILES,target,assay,system,setting,Ki [µM]
CC(C)=CCCC1(C)Oc2ccc3cc(-c4cc(O)cc(O)c4CC=C(C)C)oc3c2CC1O (stereo not shown),PTPN1,"enzyme activity, inhibitor",,,10.9
CC(C)C[C@@H](C=O)NC(=O)[C@H](CC(=O)O)NC(=O)[C@H](CCCCN)NC(=O)[C@H](CO)NC(=O)[C@H](CO)NC(=O)OCc1ccccc1,"Prostate-specific antigen (Homo sapiens, UniProt P07288)","enzyme activity, inhibitor, fluorescence",,pH 7.8,> 1000
C[C@@H]1O[C@@H](O[C@@H]2C(=O)c3c(O)cc(O)cc3O[C@@H]2c2ccc(O)cc2)[C@H](O)[C@H](O)[C@H]1O,PTPN1,Lineweaver-Burk secondary plots,,free enzyme,3.19
CC[C@H](C)[C@H](NC(C)=O)C(=O)N[C@H](C(=O)N[C@H](C(=O)N[C@H](CCN)C(=O)N[C@H](C=O)CC(=O)O)C(C)C)[C@@H](C)O,CASP3,"enzyme activity, inhibitor, fluorescence",,pH 7,> 100
CC(C)(C)COCCCCCN1C[C@H](O)[C@@H](O)[C@H](O)[C@@H]1CO,GBA3,"enzyme activity, inhibitor",,,119
CC(=O)N[C@@H](CC(=O)O)C(=O)N[C@H](C(=O)N[C@@H](CCN)C(=O)N[C@H](C=O)CC(=O)O)C(C)C,CASP3,"enzyme activity, inhibitor, fluorescence",,pH 7,3.31
CCC[C@H](O)[C@H](NC[C@@H](O)[C@H](Cc1ccccc1)NC(=O)c1cccc(C(=O)N(C)[C@H](C)c2ccccc2)c1)C(=O)NCC(C)C,"Cathepsin D (CTSD, Homo sapiens, UniProt P07339)","enzyme activity, inhibitor",,,0.473
CC(=O)N[C@H](C(=O)N[C@@H](CN)C(=O)N[C@H](C=O)CC(=O)O)C(C)C,CASP3,"enzyme activity, inhibitor, fluorescence",,pH 7,> 100
CCCCOc1ccc(C(=O)OCC[N+]2(C)CC=CCC2)cc1 (stereo not shown),"CHRM5 (Homo sapiens, UniProt P08912)","ligand displacement, radioligand",,cell membranes,3.39
Cc1cc(CN2CCOCC2)ccc1OCCCN1CCN(c2cccc3sccc23)CC1,"Drd2 (Rattus norvegicus, UniProt P61169)","cell-free assay, radioligand",,,0.0902
O=C1Nc2ccccc2N(C(=O)CN2CCC(CCCCN3CCC(OC(=O)C(c4ccccc4)c4ccccc4)CC3)CC2)c2ccccc21,CHRM3,"ligand displacement, radioligand",,,0.0347
CC[C@H](C)[C@H](NC(=O)CN)C(=O)N[C@H](C(=O)N[C@@H](CC(N)=O)C(=O)N[C@H](C(=O)N[C@@H](CC(C)C)C(=O)N[C@@H](CCC(N)=O)C(=O)N[C@@H](CCC(N)=O)C(=O)N[C@@H](Cc1ccc(O)cc1)C(=O)N[C@@H](Cc1ccc(O)cc1)C(=O)N[C@@H](CO)C(=O)N[C@@H](CCC(N)=O)C(=O)N[C@H](C(=O)N[C@@H](CCCNC(=N)N)C(=O)NCC(=O)NCC(=O)N[C@@H](CCCNC(=N)N)C(=O)N[C@@H](CO)C(=O)N[C@@H](C)C(=O)N[C@H](C(=O)N[C@@H](CC(C)C)C(=O)N[C@@H](CO)C(=O)N[C@@H](CO)C(=O)N[C@@H](CC(C)C)C(=O)N1CCC[C@H]1C(=O)N[C@@H](CCCCN)C(=O)N[C@@H](CCC(=O)O)C(=O)N[C@@H](CCC(=O)O)C(=O)N[C@@H](CCC(N)=O)C(=O)N[C@H](C(=O)NCC(=O)N[C@@H](CCC(N)=O)C(=O)N[C@@H](CO)C(=O)N[C@@H](CO)C(=O)N[C@H](C(=O)N[C@@H](CCC(N)=O)C(=O)NCC(=O)N[C@@H](CCC(N)=O)C(=O)N[C@@H](CCC(N)=O)C(=O)N[C@@H](CO)C(=O)N[C@@H](CO)C(=O)N[C@@H](CCCNC(=N)N)C(=O)N[C@@H](CCCNC(=N)N)C(=O)N[C@@H](CCCCN)C(=O)N[C@@H](CCCCN)C(N)=O)[C@@H](C)O)[C@@H](C)CC)C(C)C)C(C)C)[C@@H](C)O)[C@@H](C)CC,"MC1R (Homo sapiens, UniProt Q01726)",,HEK-293T transfected,"2 h, 37 °C, together with: Eu-NDP-MSH",> 5
C[C@H](CCC(=O)OCc1ccccc1)[C@H]1CC[C@H]2[C@@H]3[C@H](O)C[C@H]4C[C@H](OC(=O)CCC(=O)O)CC[C@]4(C)[C@H]3CC[C@]12C,SLC10A2,"taurocholate uptake, inhibitor",MDCK expressing SLC10A2,,< 25
CC(C)C[C@H](NC(=O)[C@H](CC(C)C)NC(=O)[C@H](Cc1c[nH]cn1)NC(=O)[C@H](CC(C)C)NC(=O)[C@@H](NC(=O)[C@H](CCC(=O)O)NC(=O)[C@H](CO)NC(=O)[C@H](Cc1c[nH]c2ccccc12)NC(=O)[C@H](C)NC(=O)[C@@H](N)[C@@H](C)O)C(C)C)C(=O)N[C@@H](CO)C(=O)N[C@@H](CCCNC(=N)N)C(=O)NCC(=O)NCC(=O)NCC(=O)N[C@@H](CO)C(=O)N[C@@H](CCCCN)C(N)=O,"Plasma membrane calcium-transporting ATPase 3 (ATP2B3, Homo sapiens, UniProt Q16720)","Ca2+-Mg2+-ATPase activity, inhibitor",Sf9 cell microsomes,,274 ± 40
CCC(=O)NCc1cc(C(=O)NCCCC(=O)NCCCCCOc2nsnc2C2=CCCN(C)C2)cc(C(=O)NCCN2CCN(CCCCC3CCN(CC(=O)N4c5ccccc5NC(=O)c5ccccc54)CC3)CC2)c1,CHRM3,"ligand displacement, radioligand",,,0.0135
Nc1ncnc2c1ncn2[C@@H]1O[C@H](C(=O)NCCCF)[C@@H](O)[C@H]1O,ADORA3,"ligand displacement, radioligand",,cell membranes,0.15
O=C(CCCCc1ccc(OP(=O)(O)O)c(OP(=O)(O)O)c1)N1CCCCC1,"Signal transducer and activator of transcription 5A, SH2 (Homo sapiens, UniProt P42229)","ligand displacement, FP",,,21
CC(=O)N[C@H](C(=O)N[C@@H](CC(=O)O)C(=O)N[C@H](CCCCN)C(=O)N[C@@H](C)C(=O)N[C@H](C=O)CC(=O)O)C(C)C,CASP3,"enzyme activity, inhibitor, fluorescence",,pH 7,> 100
CC(CCC(=O)NC(CCC(=O)Nc1ccc(Br)nc1)C(=O)O)C1CCC2C3C(O)CC4CC(O)CCC4(C)C3CCC12C (stereo not shown),SLC10A2,"taurocholate uptake, inhibitor",ASBT-MDCK,"10 min, together with: taurocholate 2.5 µM",4.96
CN1CCC=C(c2nsnc2OCCCCCN2CCN(CCCCCOc3nsnc3C3=CCCN(C)C3)CC2)C1,CHRM3,"ligand displacement, radioligand",,,0.0501
CC(C)=CCC/C(C)=C/CC/C(C)=C(\F)COP(=O)(O)OP(=O)(O)O,"SC1 (Streptomyces citricolor, UniProt G5EKM9)","inhibitor, radioligand inhibition",,together with: [3H]FDP,1.1 ± 0.56
COc1cc(-c2ccnc3nc(Nc4ccc(S(N)(=O)=O)cc4)nn23)cc(OC)c1OC,"CA4 (Homo sapiens, UniProt P22748)","enzyme activity, inhibitor, stopped-flow",,,1.6
NCc1cc(C(=O)NCCN2CCN(CCCCC3CCN(CCCN4C(=O)CCc5ccccc54)CC3)CC2)cc(C(=O)NCCN2CCN(CCCCC3CCN(CC(=O)N4c5ccccc5NC(=O)c5ccccc54)CC3)CC2)c1,CHRM3,"ligand displacement, radioligand",,,0.0132
CC(=O)N[C@H](C(=O)N[C@@H](CC(=O)O)C(=O)N[C@H](CCCCN)C(=O)N[C@H](C(=O)N[C@H](C=O)CC(=O)O)C(C)C)C(C)C,CASP3,"enzyme activity, inhibitor, fluorescence",,pH 7,0.912
OC[C@H]1[C@@H](O)[C@H](O)[C@@H](O)CN1CCCCCOCc1ccc(-c2ccccc2)cc1,GBA3,"enzyme activity, inhibitor",,,27.8
CC(Cl)C(=O)Nc1ccc2nc(NCCCCCN(C)C)nc(NCCCCCCN(C)C)c2c1 (stereo not shown),"Histone-lysine N-methyltransferase SETDB1, triple Tudor domain (SETDB1, Homo sapiens, UniProt Q15047)",,,,0.75 ± 0.35
Nc1nc(O)c2[nH]cc(CN[C@H](CO)CCP(=O)(O)O)c2n1,Hypoxanthine-guanine phosphoribosyltransferase,,,,0.015 ± 0.002
COc1cccc(-c2c(C#N)c(N)nc(SCc3ncc[nH]3)c2C#N)c1,ADORA3,"ligand displacement, radioligand",,cell membranes,0.071
COc1ccc(CCCN[C@@H]2CCC[C@H]2CN[C@H]2CCC[C@@H]2CNCCCCN[C@H]2CCC[C@@H]2CN)cc1,"MAOB (Homo sapiens, UniProt P27338)","enzyme activity, inhibitor",,,> 500
C[C@H](CCC(=O)O)[C@H]1CC[C@H]2[C@@H]3[C@@H](OC(=O)c4ccccc4)C[C@H]4C[C@H](O)CC[C@]4(C)[C@H]3CC[C@]12C,SLC10A2,"transporter uptake, inhibitor, radiometric",,,8.19
O=c1[nH]cnc2c(CNCC(O)CP(=O)(O)O)c[nH]c12 (stereo not shown),Hypoxanthine-guanine phosphoribosyltransferase,,,,0.17 ± 0.02
CC(CCC(=O)NC(CCC(=O)Nc1cccc(N)n1)C(=O)O)C1CCC2C3C(O)CC4CC(O)CCC4(C)C3CCC12C (stereo not shown),SLC10A2,"taurocholate uptake, inhibitor",ASBT-MDCK,"10 min, together with: taurocholate 2.5 µM",13.2
C/C(=N\OCCCN1CCOCC1)c1ccc(C(F)(F)F)cc1,"Sigmar1 (Rattus norvegicus, UniProt Q9R0C9)",binding,,,0.00311 ± 1e-05
O=P(O)(O)CC[C@@H](CO)NCc1c[nH]c2c(O)nc(O)nc12,Hypoxanthine-guanine phosphoribosyltransferase,,,,13.4 ± 0.9

# A few entries again:
SMILES,target,assay,system,setting,Ki [µM]
CC(=O)N[C@H](C(=O)N[C@@H](CC(=O)O)C(=O)N[C@H](CCCCN)C(=O)N[C@H](C(=O)N[C@H](C=O)CC(=O)O)C(C)C)C(C)C,CASP3,"enzyme activity, inhibitor, fluorescence",,pH 7,0.912
OC[C@H]1[C@@H](O)[C@H](O)[C@@H](O)CN1CCCCCOCc1ccc(-c2ccccc2)cc1,GBA3,"enzyme activity, inhibitor",,,27.8
CC(Cl)C(=O)Nc1ccc2nc(NCCCCCN(C)C)nc(NCCCCCCN(C)C)c2c1 (stereo not shown),"Histone-lysine N-methyltransferase SETDB1, triple Tudor domain (SETDB1, Homo sapiens, UniProt Q15047)",,,,0.75 ± 0.35
Nc1nc(O)c2[nH]cc(CN[C@H](CO)CCP(=O)(O)O)c2n1,Hypoxanthine-guanine phosphoribosyltransferase,,,,0.015 ± 0.002
COc1cccc(-c2c(C#N)c(N)nc(SCc3ncc[nH]3)c2C#N)c1,ADORA3,"ligand displacement, radioligand",,cell membranes,0.071
COc1ccc(CCCN[C@@H]2CCC[C@H]2CN[C@H]2CCC[C@@H]2CNCCCCN[C@H]2CCC[C@@H]2CN)cc1,"MAOB (Homo sapiens, UniProt P27338)","enzyme activity, inhibitor",,,> 500
